# Assay results pooled from the literature.
# Each numbered part is a random draw from the data of one study; scales do not carry over between parts. Changes are numbered by the printed parent chain.

# Set 1
# Target: DBP, bZIP domain (human)
# Technique: DHFR protein complementation
# Medium: yeast
# Notes: single substitutions, most at no-binding floor
# Relative to: wild-type JUN-FOS pair
# Reading: higher = stronger binding
# Parent: JUN, bZIP domain (human); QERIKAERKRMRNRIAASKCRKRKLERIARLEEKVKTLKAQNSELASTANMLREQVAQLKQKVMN; partner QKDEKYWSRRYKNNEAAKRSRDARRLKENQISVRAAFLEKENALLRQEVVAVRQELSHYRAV
Change,binding fitness [natural log]
A49N,-1.55
I28T,-1.44
E44H,-1.46
S47I,-1.41
A57K,-1.55
A29D,-1.36
A49T,-1.55
E44C,-1.46
L59F,-1.41
A57T,-1.41
M51C,-1.57
Q55G,-1.44
Q41V,-1.38
Q55E,-1.58
N42R,-1.48
A49Y,-1.48
L59G,-1.52
M51A,-1.29
A29L,-1.38

# Set 2
# Target: CCNF, cyclin fold, Cln2 fusion (human)
# Technique: yeast growth competition, sequencing
# Medium: yeast
# Notes: strong parent motif
# Relative to: not given
# Reading: higher = stronger binding
# Parent: RBL1 docking peptide (human); GSAKRRLFGEDPP
Change,normalised enrichment score
GNAKRRLFGEDPP [S2N],7.91
GSAKRRLIGEDPP [F8I],0.74
GSAERRLFGEDPP [K4E],0.446
GSAKHRLFGEDPP [R5H],0.492
GSAKRRLFGEDIP [P12I],6.87
GSAMRRLFGEDPP [K4M],3.97
GSAKRVLFGEDPP [R6V],5.54
GSAKRRLFGETPP [D11T],7.3
GSAKRRLFGEDKP [P12K],6.2
GSAARRLFGEDPP [K4A],6.46
GDAKRRLFGEDPP [S2D],5.07
GSAKRRLFGEDDP [P12D],7.02
GSAKRRLFGDDPP [E10D],7.3
GSAKRRLFGQDPP [E10Q],6.31
GSAKMRLFGEDPP [R5M],0.488
GSAKRRLFGHDPP [E10H],6.64
GSAKRRLFGEIPP [D11I],6.73
GSSKRRLFGEDPP [A3S],3.55
GSAKRNLFGEDPP [R6N],5.85
GHAKRRLFGEDPP [S2H],7.32
GSAKRRLFGEYPP [D11Y],7.49
GSAKRRLFGMDPP [E10M],6.6
GSAKRRLFGKDPP [E10K],5.95
GGAKRRLFGEDPP [S2G],6.89
GCAKRRLFGEDPP [S2C],7.93

# Set 3
# Target: Prothrombin, mature alpha-thrombin (F2, Homo sapiens, UniProt P00734)
# Technique: aptamer microarray, sandwich
# Form: DNA with 2'F-ANA
# Medium: in vitro
# Concentration: 200 nM
# Notes: whole 15-mer aptamer, many near background
# With: Cy3 exosite-II aptamer, 400 nM
# Reading: higher = stronger binding
# Strand: GGTTGGTGTGGTTGG
Modification,mean fluorescence intensity [a.u.]
2'F-ANA at 3 5 8 9 11 12 14,66.9
2'F-ANA at 1 2 4 5 12 13 14 15,45
2'F-ANA at 1 2 3 4 7 8 9 10,62.6
2'F-ANA at 2 7 8 9 11 12,682
2'F-ANA at 3 4 6 9 11 12 15,647
2'F-ANA at 4 5 6 8 10 11 13 15,58.5
2'F-ANA at 4 5 8 12 13 14,46
2'F-ANA at 1 2 3 4 5 11 15,54.8
2'F-ANA at 1 4 8 11 13 14 15,52.5
2'F-ANA at 4 6 7 8 10 12 13 14 15,58.1
2'F-ANA at 1 2 4 5 7 8 11,102
2'F-ANA at 4 8 9 10 11 14 15,83.9
2'F-ANA at 1 2 6 7 8 9 10 12 13 14,51.1
2'F-ANA at 6 8 9 11 13 14,199
2'F-ANA at 2 3 6 8 9 10 14 15,258
2'F-ANA at 1 2 3 4 5 7 8 9,72.4
2'F-ANA at 2 3 4 7 10 11 12,370
2'F-ANA at 2 3 5 6 8 9 10 11 13 15,58.6
2'F-ANA at 4 6 8 9 13,174
2'F-ANA at 1 2 7 8 10 11 14 15,54.1
2'F-ANA at 1 2 4 5 6 7 13 14 15,48.7
2'F-ANA at 1 2 3 5 7 8 11 12 13 15,77.8
2'F-ANA at 2 4 9 15,319
2'F-ANA at 1 3 7 8 9 11 13,305
2'F-ANA at 1 2 3 7 10 12 13 14,72.6

# Set 4
# Target: Histone acetyltransferase KAT6A, winged helix 2, GST fusion (KAT6A, Homo sapiens, UniProt Q92794, residues 85-181)
# Technique: protein binding microarray
# Form: double-stranded DNA, one strand shown
# Medium: in vitro
# Concentration: not given
# Notes: 8-mer, flanks averaged, mean of 2 arrays, mostly near background
# Relative to: not given
# Reading: higher = stronger binding
# Construct (chain): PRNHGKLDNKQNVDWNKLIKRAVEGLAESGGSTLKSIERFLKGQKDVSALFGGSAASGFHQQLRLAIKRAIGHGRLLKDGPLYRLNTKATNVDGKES
Strand,E-score
AAGCCTAG,-0.0023
AATTGGGA,0.0152
ACCTTAGT,-0.129
ACGCTCAG,-0.0879
CAGAATGG,0.0188
CCTGAACG,0.0135
ATCAACGG,0.0466
ATTACACC,-0.0616
TCCCTTCA,-0.0348
ATGTCAAA,-0.0329
AGCTATCA,0.0372
CACATCCG,0.0343
CTTCGGAC,0.177
AGGAATAC,-0.0254
ATCGTGGA,-0.029
CACTACGA,0.118
TCACTGAA,-0.0167
CACATTGG,-0.0603
CGTACAAA,0.0186
AAGTCTAC,-0.265
TAGGCGAA,-0.0505
AACACGTT,-0.157
ATCAAGGA,0.0109
ACAGGAGT,-0.0696
GGGGCAAA,-0.0664

# Set 5
# Target: RNA binding protein fox-1 homolog 2, RRM domain, GST-SBP tag (RBFOX2, Homo sapiens, UniProt O43251-10, residues 100-194)
# Technique: RNA Bind-n-Seq
# Form: RNA
# Medium: in vitro
# Concentration: 365 nM
# Notes: natural RNA segment, single round, ends assumed
# Relative to: no-protein control
# Reading: higher = stronger binding
# Shared flanks, not repeated: GGGAGUUCUACAGUCCGACGAUC … UGGAAUUCUCGGGUGCCAA
# Construct (chain): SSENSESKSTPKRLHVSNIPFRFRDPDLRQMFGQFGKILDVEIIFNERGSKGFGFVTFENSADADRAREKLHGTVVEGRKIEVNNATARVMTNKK
Strand,RBNS enrichment (R)
GAGUUGUGAGCUCUUCUUCUGUAGCCCUGAAGGGACACUGUAUUCUGUAUGAAUGCAUGGCAUGAGACAACUAAUUUAAGAGACUUUUAUAAAUAAAGUUUGCAUUAACU,1.31
UUUGAUAUUUCUCUUCCGAGAUGAACAAGUAGCAUGUAAUGCAACUGUUUGACAGUUUAACUCAAGUCAUGCUUCAAACUGUUUUAAUGAUCAAAUCAAGACACAUUUCA,0.666
GGCCAUGUCCUGGCCCCGUCUCCACCAACCUUUGUGUGACAAAAACAAGGACAAAUUCCUGCUACUAAGACAUGCUGUUAACUCAGUCUGACUGGAAGAAUUUAGGACCA,0.288
CCCUCUCGGCUCACAUGUUCACAGUGCAGCUCCUGGCAGACUUGGGUUUUCUCUUUGGUGGUUUCUAAAGUGCCUUAUCUGCAAACAACUUCUUUUCUCCUUCAGGAACU,0.331
AGGAAGAUACCAUUCAGGAACCUGGACCAGAGGUGGUAAUAAAAGGGCUGGGUCAUUGGGCCUGCAGCAGCAUCUGCCCAGAUGCAUCCAAGAACUUGUUAACCCUCCCU,0.281
UGUUGCAGACAUGGAUGAAAUGCUGCCCAGGUCUAAGGAGAACAAGAAGAGAGGACCUUGUUCUCUGUAGUUGGGAAUCCCAACUCUGAAUCUUUACAACAUCCAUCGUC,1.14
UGAAUUUGGAAUUUAUUUCUUCCAUGUUUUGAUCAAUUCUCUGUAACUUUUCUUGGCUUAUAAGGUCCAAUUUCUGUGUCUGGAGGUAUAAAAAAAUUACACUGACUACU,0.367
CCAUGGGGUUUGGGUGCAGGGGCAUGGCACCCUUUCCUGUCGGGAAGGGAGAGGGGAACUACCCCCCCAGCCUGCCCUCCGCCCCGCCCCAGCCGGCGGACUGUGCUGUU,0.278

# A few entries again (set 1):
Change,binding fitness [natural log]
S47I,-1.41
I28T,-1.44
L59G,-1.52
A49N,-1.55
A29L,-1.38
A29D,-1.36
Q55E,-1.58
A57T,-1.41
A49Y,-1.48
L59F,-1.41
M51A,-1.29
E44H,-1.46
E44C,-1.46
A57K,-1.55
N42R,-1.48
